Earlier results that unrelated publications cite.
Compare with care: the assays were run in different laboratories. “And” joins repeats or separate records; there may be more than shown. ± gives the spread as reported.
Chain of UniProt P08909 (whole entry, looked up): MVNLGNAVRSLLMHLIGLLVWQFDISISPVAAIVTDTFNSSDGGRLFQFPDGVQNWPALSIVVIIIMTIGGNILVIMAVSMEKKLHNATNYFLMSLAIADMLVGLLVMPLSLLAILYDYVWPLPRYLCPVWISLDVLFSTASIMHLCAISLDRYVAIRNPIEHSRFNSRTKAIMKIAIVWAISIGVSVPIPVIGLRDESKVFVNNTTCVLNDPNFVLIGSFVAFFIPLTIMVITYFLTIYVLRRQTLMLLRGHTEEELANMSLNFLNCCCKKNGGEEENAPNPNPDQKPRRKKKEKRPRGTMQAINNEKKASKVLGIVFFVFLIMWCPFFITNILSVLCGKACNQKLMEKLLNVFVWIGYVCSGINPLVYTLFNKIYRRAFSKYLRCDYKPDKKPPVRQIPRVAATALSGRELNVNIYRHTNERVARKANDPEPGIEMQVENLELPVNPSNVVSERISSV
Chain of UniProt P33534 (whole entry, looked up): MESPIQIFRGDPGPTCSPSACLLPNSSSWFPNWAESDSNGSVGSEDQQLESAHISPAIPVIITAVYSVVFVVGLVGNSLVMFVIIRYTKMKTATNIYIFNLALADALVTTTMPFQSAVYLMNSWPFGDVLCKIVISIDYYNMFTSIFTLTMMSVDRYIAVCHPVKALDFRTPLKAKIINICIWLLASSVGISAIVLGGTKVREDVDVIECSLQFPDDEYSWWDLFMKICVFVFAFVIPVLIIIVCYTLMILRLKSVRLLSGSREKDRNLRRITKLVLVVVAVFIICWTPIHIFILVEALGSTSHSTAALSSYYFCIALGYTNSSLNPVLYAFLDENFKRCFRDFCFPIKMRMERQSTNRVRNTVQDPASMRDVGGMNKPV

| SMILES | target | test | setting | measurement | result |
| --- | --- | --- | --- | --- | --- |
| NCC1C=Nc2nc(N)[nH]c(=O)c21 (stereo not drawn) | class I riboswitch, Can |  | first of two cooperative sites | Kd | 891 nM |
| COc1cc(C[C@@H](C)N)c(OC)cc1I | 5-hydroxytryptamine receptor 2C (Rattus norvegicus, UniProt P08909) | agonist |  | EC50 | 30.2 nM |
| CCc1c(C(=O)NN2CCCCC2)nc(-c2ccc(Cl)cc2Cl)n1-c1ccc(Cl)cc1 | CB2 receptor | binding |  | Ki | 608 nM |
| COC(=O)[C@@H]1C[C@H](OC(C)=O)C(=O)[C@H]2[C@@]1(C)CC[C@H]1C(=O)O[C@H](c3ccoc3)C[C@]21C | kappa opioid receptor V108L |  |  | Ki | 4.1 ± 0.8 nM |
| N[C@H]1C[C@H]1c1ccccc1 | tyramine oxidase (Arthrobacter sp.) | enzyme activity, inhibitor | pH 7.2, literature data, together with: benzylamine 0.6 mM substrate | IC50 | 33000 nM and 35000 nM |
| CCS(=O)(=O)n1c2c(c3cc(C(=O)N4CCC(F)CC4)ccc31)CN(C1CCCC1)C2 | CB2 receptor | binding |  | Ki | 44.2 nM |
| O=C(NC1C=C[C@H]2[C@H]3Cc4ccc(O)c5c4[C@@]2(CCN3CC2CC2)C1O5)c1cccc(I)c1 (stereo partly drawn) | Oprk1 (Mus musculus, UniProt P33534) |  |  | EC50 | 0.027 ± 0.002 nM |
| Cc1c(C(=O)NCCCCO)nn(-c2ccc(Cl)cc2Cl)c1-c1ccc(Cl)cc1 | CB1 receptor | binding |  | Ki | 154 nM |
| CC(NC(C)(C)C)C(=O)c1cccc(Cl)c1 (stereo not drawn) | serotonin 5-HT3AB receptor | antagonist |  | IC50 | 840000 nM |

Excerpt of the above:
| SMILES | target | test | setting | measurement | result |
| --- | --- | --- | --- | --- | --- |
| N[C@H]1C[C@H]1c1ccccc1 | tyramine oxidase (Arthrobacter sp.) | enzyme activity, inhibitor | pH 7.2, literature data, together with: benzylamine 0.6 mM substrate | IC50 | 33000 nM and 35000 nM |
